Published values from different studies.
A part holds a random share of what one study measured. Positions count from the first letter of the parent shown.

Block 1
Target: Prothrombin, mature alpha-thrombin (F2, Homo sapiens, UniProt P00734)
Technique: aptamer microarray, sandwich
Form: DNA with 2'F-ANA
Matrix: in vitro
Concentration: 200 nM
Setting: whole 15-mer aptamer, many near background
With: Cy3 exosite-II aptamer, 400 nM
Direction: higher = stronger binding
Oligonucleotide: GGTTGGTGTGGTTGG
For `2'F-ANA at 2 3 4 6 9 10 12 13`, “mean fluorescence intensity” read 254 a.u.
`2'F-ANA at 1 3 7 8 10 11 12` — result for “mean fluorescence intensity”: 108 a.u.
Under “mean fluorescence intensity”, `2'F-ANA at 4 5 6 8 10 13 14 15` is recorded as 46.2 a.u.
Under “mean fluorescence intensity”, `2'F-ANA at 1 3 4 5 7 8 9 12 14 15` is recorded as 51 a.u.
Under “mean fluorescence intensity”, `2'F-ANA at 1 3 6 7 10 11 15` is recorded as 76.5 a.u.
`2'F-ANA at 4 7 8 10 15` — result for “mean fluorescence intensity”: 103 a.u.
Under “mean fluorescence intensity”, `2'F-ANA at 1 3 4 6 7 9 12 14 15` is recorded as 71.7 a.u.
Under “mean fluorescence intensity”, `2'F-ANA at 1 3 4 5 6 7 8 9 11 12 13 14 15` is recorded as 50.3 a.u.
Under “mean fluorescence intensity”, `2'F-ANA at 6 11` is recorded as 439 a.u.
Under “mean fluorescence intensity”, `2'F-ANA at 1 2 8 11 12 14 15` is recorded as 70 a.u.
`2'F-ANA at 1 6 8 9 10 12 13 14 15` — result for “mean fluorescence intensity”: 49.5 a.u.
Under “mean fluorescence intensity”, `2'F-ANA at 3 6 7 9 10 12 13 14` is recorded as 379 a.u.
For `2'F-ANA at 2 3 4 5 7 9 11 12 13 15`, “mean fluorescence intensity” read 106 a.u.
`2'F-ANA at 2 5 7 9 10 11 12 14 15` — result for “mean fluorescence intensity”: 47.3 a.u.
`2'F-ANA at 2 5 6 7 9 10 11 12 13 14 15` — result for “mean fluorescence intensity”: 54.1 a.u.
`2'F-ANA at 1 2 6 9 11 12 15`: “mean fluorescence intensity” 244 a.u.
`2'F-ANA at 2 3 4 6 8 12 14 15` — result for “mean fluorescence intensity”: 315 a.u.
`2'F-ANA at 1 3 4 7 12 13`: “mean fluorescence intensity” 318 a.u.
`2'F-ANA at 3 4 7 8 9 10 13` — result for “mean fluorescence intensity”: 308 a.u.
`2'F-ANA at 2 4 6 7 12 13` — result for “mean fluorescence intensity”: 385 a.u.
For `2'F-ANA at 2 4 5 6 7 8 10 14`, “mean fluorescence intensity” read 49.9 a.u.
`2'F-ANA at 5 6 7 8 9 10`: “mean fluorescence intensity” 50.1 a.u.
`2'F-ANA at 5 7 11 12 13 14 15` — result for “mean fluorescence intensity”: 44.6 a.u.
`2'F-ANA at 1 3 4 5 9 12 13 14 15` — result for “mean fluorescence intensity”: 48.6 a.u.
For `2'F-ANA at 1 3 9 10 12`, “mean fluorescence intensity” read 113 a.u.

Block 2
Target: Sal-like protein 4, full length isoform A (SALL4, Homo sapiens, UniProt Q9UJQ4, residues 1-1053)
UniProt Q9UJQ4, sequence (whole entry, looked up): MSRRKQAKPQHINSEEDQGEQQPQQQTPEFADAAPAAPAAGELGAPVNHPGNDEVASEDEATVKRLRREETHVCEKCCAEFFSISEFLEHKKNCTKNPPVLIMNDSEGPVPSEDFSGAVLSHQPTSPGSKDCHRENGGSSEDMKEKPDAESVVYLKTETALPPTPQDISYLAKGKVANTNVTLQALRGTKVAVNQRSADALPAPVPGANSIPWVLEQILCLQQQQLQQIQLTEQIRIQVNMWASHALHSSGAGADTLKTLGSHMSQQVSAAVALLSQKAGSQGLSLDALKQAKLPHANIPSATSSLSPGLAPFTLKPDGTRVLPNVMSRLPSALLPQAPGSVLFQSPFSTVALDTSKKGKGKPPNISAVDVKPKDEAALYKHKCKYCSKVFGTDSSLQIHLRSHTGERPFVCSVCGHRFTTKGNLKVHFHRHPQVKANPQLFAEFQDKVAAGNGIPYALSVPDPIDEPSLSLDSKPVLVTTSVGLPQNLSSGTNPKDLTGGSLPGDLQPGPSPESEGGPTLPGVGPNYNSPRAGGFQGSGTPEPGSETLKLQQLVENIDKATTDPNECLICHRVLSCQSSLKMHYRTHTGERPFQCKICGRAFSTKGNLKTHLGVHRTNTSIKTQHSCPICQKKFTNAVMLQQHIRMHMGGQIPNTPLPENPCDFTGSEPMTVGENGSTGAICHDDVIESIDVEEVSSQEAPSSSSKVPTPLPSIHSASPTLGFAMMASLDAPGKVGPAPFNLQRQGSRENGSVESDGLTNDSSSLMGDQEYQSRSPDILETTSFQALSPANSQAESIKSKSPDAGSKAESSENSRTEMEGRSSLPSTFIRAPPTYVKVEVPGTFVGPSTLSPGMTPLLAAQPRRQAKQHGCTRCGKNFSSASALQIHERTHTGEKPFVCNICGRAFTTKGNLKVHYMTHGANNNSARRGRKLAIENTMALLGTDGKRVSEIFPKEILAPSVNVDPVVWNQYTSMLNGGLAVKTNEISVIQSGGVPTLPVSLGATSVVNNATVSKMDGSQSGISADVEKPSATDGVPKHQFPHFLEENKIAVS
Technique: universal PBM
Form: double-stranded DNA, one strand shown
Matrix: in vitro
Concentration: 600 nM
Setting: 8-mer, flanks averaged, mean of replicates
Direction: higher = stronger binding
The E-score of `AAATCGCG` is reported as -0.0451.
The E-score of `CACTCGTA` is reported as -0.0216.
The E-score of `GCTGCACC` is reported as -0.277.
The E-score of `CTCGTAAC` is reported as 0.018.
For `CTGTTAAC`, the E-score was 0.127.
`GCTACTAA` gave an E-score of 0.0488.
`CAGTATCA` gave an E-score of 0.0755.
The E-score of `TCTACGAA` is reported as 0.0396.
`ACTCCAGG` gave an E-score of -0.219.
`GCATTTTA` has an E-score of 0.266.
For `CATAGCTC`, the E-score was -0.0684.
`CGTCTTTA` has an E-score of 0.0708.
For `ACATGGGT`, the E-score was 0.107.
`CCTCATTC` has an E-score of -0.102.
`GGGCCTCA` gave an E-score of -0.347.
With `TATGAGCA` the E-score was 0.17.
The E-score of `ATCGTCAA` is reported as 0.127.
`ACTCAGTA` gave an E-score of 0.0363.
With `AGGGTGAC` the E-score was -0.225.
`ACTGCGAT` gave an E-score of -0.0405.
`ACAAGCTC` has an E-score of -0.185.
`CGGAAAAA` gave an E-score of 0.203.
`ACGACAAC` gave an E-score of -0.0667.
`GAGGCGGA` has an E-score of -0.185.
`CTTGCGTC` has an E-score of -0.21.

Block 3
Target: Fragile X messenger ribonucleoprotein 1, C-terminal low-complexity region (Fmr1, Mus musculus, UniProt P35922)
Technique: RNA Bind-n-Seq
Form: RNA
Matrix: in vitro
Concentration: 200 nM
Setting: whole 134-nt RNA, ends assumed
With: 150 mM KCl
Reference: input library
Direction: higher = stronger binding
Shared flanks, not repeated: GGGAGUUCUACAGUCCGACGAUC … UGGAAUUCUCGGGUGUCAAGG
With `CCUCAAGUCCUGUGCUACACAUCGUAUGUACCGAAUCGGGUGGGGUGGGGUGGAAAGUAUUAUGUUACGCCGUUCGGAUCUGCACUUCCA` the log2 enrichment was 1.05.
With `UGGCCCUGGUGGCAUGCGGGGAGGAAGAGGUGGACUCAUGGAUCGUGGUGGUCCCGGUGGAAUGUUCAGAGGUGGCCGUGGUGGAGACAG` the log2 enrichment was 0.227.
With `UAACUUUAGAGGAGGAUCUGAUGGAUAUGGCAGUGGACGUGGAUUUGGGGAUGCCUAUAAUGGGUAUGGAGGAGGACCUGGAGGUGGCAA` the log2 enrichment was 0.353.
With `ACCAUGCAGGUGGGCAUCCUUGGGAAGUGGGGCAAGGGGGGGAUAGGGAGGGGGGUAACACUUUGGGAACAGGUGGUCCCAGGUCGUUUC` the log2 enrichment was 0.861.
With `AAGUCCUGUGCUACACAUCGUAUGUACCGAAUCGGGCCCGGGGCCCGGGGCCCGGGAAAGUAUUAUGUUACGCCGUUCGGAUCUGCACUU` the log2 enrichment was -0.804.
`UAGUGAUGAAAAAUUUCUCCCUUCUAGGUUUCCCUUGGGGGCUUUGAAAUAACACCACCAGUGGUCUUAAGGUUGAAGUGUGGUUCAGGG` has a log2 enrichment of -0.182.
With `CCUCAAGUCCUGUGCUACACAUCGUAUGUACCGAAUCGGUGGUUUUUGGAGGAAAGUAUUAUGUUACGCCGUUCGGAUCUGCACUUCCAG` the log2 enrichment was 0.252.
`UCAAGUCCUGUGCUACACAUCGUAUGUACCGAAUCGGAGGAAAAAAAGGAAAGGAAAGUAUUAUGUUACGCCGUUCGGAUCUGCACUUCC` has a log2 enrichment of -0.543.
For `ACCAUGCAGGUGGGCAUCUUUGGGAAGUGGGGCAAGGGGGGGAUAGGGAGGGGGGCAACACUUUGGGAACAGGUGGUCCCAGGUCGUUUC`, the log2 enrichment was 1.
With `AAGUCCUGUGCUACACAUCGUAUGUACCGAAUCGGGUUUGGGGUUUGGGGUUUGGGAAAGUAUUAUGUUACGCCGUUCGGAUCUGCACUU` the log2 enrichment was 0.684.
For `GCAGGAAGUAAAAACAAAUGGAAAUGCUUCGGAUAGUGGCAGGGGUGGGGGUUGCUCAGGAAAGGGUGGGAUGGGAGUGGGUAAAGAGUU`, the log2 enrichment was 0.402.
With `CACAGACAACACGCACCCACACAGACACAGAGGGAAGUGGUUGGGAUGGGGACAGGGUGCACAGCAGGGCGGGGUAGGACCCCAGCCCCU` the log2 enrichment was 1.36.
`UGGGAGGUGGAUAUUGUUUAUUUUUUUAGCUCAUUUCCAGGGGUGGGAAUUUUUUUUUAAUAUGUGUCAUGAAUAAAGUUGUUUUUGAAA` has a log2 enrichment of 0.224.
For `CACAGACAACACGCACCCACACAGACACAGAGCGAAGGGGUUGGGAUGGGGACAGGGUGCACAGCAGGGCGGGGUAGGACCCCAGCCCCU`, the log2 enrichment was 1.34.

Block 4
Target: Interferon regulatory factor 7, full length, phosphomimetic (IRF7, Homo sapiens, UniProt Q92985, residues 1-503, S471D/S472D/S475D/S476D/S477D/S483D/S484D/S487D)
UniProt Q92985, sequence (whole entry, unmodified, looked up): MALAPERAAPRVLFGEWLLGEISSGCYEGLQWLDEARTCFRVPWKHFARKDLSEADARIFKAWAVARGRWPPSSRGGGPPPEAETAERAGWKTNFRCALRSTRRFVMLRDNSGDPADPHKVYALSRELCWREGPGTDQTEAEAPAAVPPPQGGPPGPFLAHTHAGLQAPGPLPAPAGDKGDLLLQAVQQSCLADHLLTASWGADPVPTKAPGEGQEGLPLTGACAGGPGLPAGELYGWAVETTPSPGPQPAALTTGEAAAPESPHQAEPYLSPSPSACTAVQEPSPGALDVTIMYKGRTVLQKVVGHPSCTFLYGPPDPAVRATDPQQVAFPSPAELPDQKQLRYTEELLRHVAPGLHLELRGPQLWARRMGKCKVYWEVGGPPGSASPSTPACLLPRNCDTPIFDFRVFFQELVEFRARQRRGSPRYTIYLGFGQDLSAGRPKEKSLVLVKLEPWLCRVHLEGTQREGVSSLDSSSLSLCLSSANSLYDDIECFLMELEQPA
Technique: protein-binding microarray
Form: double-stranded DNA, one strand shown
Matrix: in vitro
Concentration: 2200 nM top
Setting: 60-bp whole probe
With: salmon DNA 0.4 mg/ml
Reference: random background probes
Direction: higher = stronger binding
Shared flanks, not repeated: GCCTAGCAC … GTCTTGATTCGCTTGACGCTGCTG
Under “fitted relative affinity”, `TTAGATATCGAGTTTCGATTAGTGCTA` is recorded as 3.98 z-score.
For `GACGGTCTCCTTATCCCGACGTGCTAG`, “fitted relative affinity” read 1.21 z-score.
`TCAGGCCTCTTCATTCATACTGTGCTA` — result for “fitted relative affinity”: 0.424 z-score.
`GACGGTATCGGTATCGCGACGTGCTAG`: “fitted relative affinity” 0.562 z-score.
`TTAGATCTCAGTTTCTATTAGTGCTAG` — result for “fitted relative affinity”: 2.23 z-score.
`TTTGGTCTCGGACTGGGTTAGTGCTAG`: “fitted relative affinity” 0.446 z-score.
`TTAGGTTTCGGACTGAGTTAGTGCTAG` — result for “fitted relative affinity”: 2.52 z-score.
`TCAGGTATCGGTCTCGGTTAGTGCTAG`: “fitted relative affinity” 1.59 z-score.
For `GGCGATATCAGACTGGAGACGTGCTAG`, “fitted relative affinity” read -0.569 z-score.
For `CGCTCCCTTTATTCCACATTGTGCTAG`, “fitted relative affinity” read 1.92 z-score.
`TTAGATATCGGGTATAGATTAGTGCTA` — result for “fitted relative affinity”: -0.121 z-score.
Under “fitted relative affinity”, `GTTTTACTTTCTATCTCTGTGTGCTAG` is recorded as 6.44 z-score.
For `GACGATCTCATTCTCGAGACGTGCTAG`, “fitted relative affinity” read 0.81 z-score.
`TCACTTTTTAAGATCTGACTGTGCTAG`: “fitted relative affinity” 0.849 z-score.
For `TTAGGTATCGAGTATCGGTTAGTGCTA`, “fitted relative affinity” read 0.538 z-score.
`TTAGGTATCGGACTAGGTTAGTGCTAG` — result for “fitted relative affinity”: 0.0809 z-score.
`GACGATGCCAGTTTCGAGACGTGCTAG`: “fitted relative affinity” 3.75 z-score.
`GACTATATCAGTTTCGAGACGTGCTAG`: “fitted relative affinity” 3.64 z-score.
For `GACGGTCTCCTTATCCTCACGTGCTAG`, “fitted relative affinity” read 1.23 z-score.
For `TTAGGTATCCTTATCCTTTTGTGCTAG`, “fitted relative affinity” read 0.999 z-score.
For `TTAGGTTTCGGTTTCGGTAAGTGCTAG`, “fitted relative affinity” read 14.1 z-score.
`TCAGTGCTCATTTTTTTACTGTGCTAG` — result for “fitted relative affinity”: 0.184 z-score.
Under “fitted relative affinity”, `TTAGGTTTAGGTCTCGGTTAGTGCTAG` is recorded as 0.619 z-score.
`TCACCTTTCTCTTGGAGACTGTGCTAG` — result for “fitted relative affinity”: 2.22 z-score.
Under “fitted relative affinity”, `TCACCTCTCCATACTTCACTGTGCTAG` is recorded as 2.12 z-score.

Block 5
Target: CCNA1, cyclin fold, Cln2 fusion (human)
Technique: yeast growth competition, sequencing
Matrix: yeast
Setting: weak parent motif
Reference: not given
Direction: higher = stronger binding
Starting sequence: PKN2 docking peptide (human); VSAVRKLDFSDTM; partner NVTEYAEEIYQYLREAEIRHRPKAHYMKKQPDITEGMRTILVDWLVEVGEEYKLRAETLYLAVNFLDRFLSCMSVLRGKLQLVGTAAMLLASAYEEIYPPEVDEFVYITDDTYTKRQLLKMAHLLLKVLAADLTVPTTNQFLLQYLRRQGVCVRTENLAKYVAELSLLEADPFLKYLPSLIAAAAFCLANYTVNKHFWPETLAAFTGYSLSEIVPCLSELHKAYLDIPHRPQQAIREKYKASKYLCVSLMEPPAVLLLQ
Under “normalised enrichment score”, `S2G` is recorded as 1.11.
Under “normalised enrichment score”, `K6V` is recorded as 0.325.
Under “normalised enrichment score”, `R5K` is recorded as 0.338.
`V4F`: “normalised enrichment score” 0.892.
`T12I` — result for “normalised enrichment score”: 0.713.
`R5F`: “normalised enrichment score” 0.177.
`D11F`: “normalised enrichment score” 0.0797.
For `V4S`, “normalised enrichment score” read 1.21.
`D8V` — result for “normalised enrichment score”: 0.506.
`R5I`: “normalised enrichment score” 0.105.
Under “normalised enrichment score”, `D11V` is recorded as 0.679.
For `V4Y`, “normalised enrichment score” read 0.9.
For `F9M`, “normalised enrichment score” read 0.471.
`R5C`: “normalised enrichment score” 0.109.
`V4C` — result for “normalised enrichment score”: 1.61.
`R5T` — result for “normalised enrichment score”: 0.0554.
`K6G` — result for “normalised enrichment score”: 0.163.
`L7K` — result for “normalised enrichment score”: 0.0746.
Under “normalised enrichment score”, `V4A` is recorded as 1.31.
`T12N`: “normalised enrichment score” 0.951.
For `S10W`, “normalised enrichment score” read 0.639.
Under “normalised enrichment score”, `S10V` is recorded as 0.313.
`S10C` — result for “normalised enrichment score”: 0.761.
Under “normalised enrichment score”, `D8H` is recorded as 0.397.
For `S2E`, “normalised enrichment score” read 0.012.

For quick reference, copied from above (block 2):
`ACGACAAC` gave an E-score of -0.0667.
With `TATGAGCA` the E-score was 0.17.
The E-score of `CTCGTAAC` is reported as 0.018.
The E-score of `TCTACGAA` is reported as 0.0396.
For `ACATGGGT`, the E-score was 0.107.
`GCATTTTA` has an E-score of 0.266.
`GAGGCGGA` has an E-score of -0.185.
With `AGGGTGAC` the E-score was -0.225.
The E-score of `GCTGCACC` is reported as -0.277.
